Published values from different studies.
Each line is one published result; not all experiments were run side by side. Numbers after ± are the reported error.

GACATACTCT  MIC (Salmonella enterica Typhimurium; bacterial growth, broth microdilution; peptide, SL1344, MHB; 24 h, 37 °C): 5 µM
LSTFFRLFN  MIC (Streptococcus gordonii; broth microdilution; peptide, ATCC 10558; 24 h, 37 °C, planktonic, anaerobic): > 256 µg/mL
c1cncc(-c2cc3ccccc3[nH]2)c1  viability (RAW264.7; sulforhodamine B; 50 µM, 20 h; relative to: vehicle): 107 ± 7%
C=C(C)[C@@H]1CC[C@]2(C)CC[C@]3(C)[C@H](CC[C@@H]4[C@@]5(C)CCC(=O)C(C)(C)[C@@H]5CC[C@]43C)[C@@H]12  MIC (Nakaseomyces glabratus; broth microdilution; clinical isolate; 48 h, 37 °C): 500 µg/mL
CC(C)C[C@H](NC(=O)[C@H](CO)NC(=O)[C@H](CCCNC(=N)N)NC(=O)[C@H](CC(=O)O)NC(=O)[C@H](CCC(=O)O)NC(=O)[C@H](C)NC(=O)[C@@H]1CCCN1C(=O)[C@H](C)NC(=O)[C@H](CCC(=O)O)NC(=O)[C@@H]1CCCN1C(=O)[C@@H]1CCCN1)C(N)=O  DOPAC level (HPLC-EC; F344 rat, normal, substantia nigra; intranasal, 1000 µg, 5 days/week for 3 weeks): 124 ± 27 ng/g
Cc1ccc(C(C)C)cc1.Cc1ccc(C(C)C)cc1.[Cl][Ru][Cl].[Cl][Ru][Cl]  MIC (Proteus vulgaris; broth microdilution; ATCC 8427; 24 to 48 h, 37 °C): > 1000 µg/mL
CC(C)[C@H](NC(=O)[C@@H]1CCCN1C(=O)[C@H](CCCNC(=N)N)NC(=O)[C@H](CS)NC(=O)[C@H](Cc1c[nH]c2ccccc12)NC(=O)[C@H](CCCNC(=N)N)NC(=O)[C@@H](Cc1ccccc1)NC(=O)[C@H](Cc1c[nH]cn1)NC(=O)[C@H](CCC(=O)O)NC(=O)[C@H](CS)NC(=O)[C@H](CS)NC(=O)[C@H](CCCCN)NC(=O)[C@@H]1CC(=O)N[C@@H](CCCNC(=N)N)C(=O)N[C@@H](C)C(=O)N[C@@H](CC(=O)O)C(=O)N[C@H](Cc2ccc(O)cc2)C(=O)N1)C(N)=O [technetium-99m labelled]  tissue uptake (C57 mice, bladder; iv, 0.037 MBq, 4 h): 65.7 ± 4.62 %ID
CC1(C)CC[C@]2(C(=O)O)CC[C@]3(C)C(=CC[C@@H]4[C@@]5(C)CC[C@H](O)C(C)(C)[C@@H]5CC[C@]43C)[C@@H]2C1  MIC (Nakaseomyces glabratus; broth microdilution; clinical isolate; 48 h, 37 °C): 500 µg/mL
Brc1ccc2[nH]c(-c3ccccc3)cc2c1  inhibition (RAW264.7; NO release, inhibitor, Griess; 50 µM, 20 h, LPS-stimulated): 42.4%
CC1(C)SC2C(NC(=O)C(NC(=O)C3=C(O)C(Cc4ccsc4)NC3=O)c3ccccc3)C(=O)N2C1C(=O)O (stereo not shown)  MIC (Escherichia coli; broth microdilution; BW25113, Mueller-Hinton broth; together with: CCCP 50 µg/mL): 25 µg/mL
CC[C@@H]([C@H](C)O)n1ncn(-c2ccc(N3CCN(c4ccc(OC[C@@H]5CO[C@@](Cn6cncn6)(c6ccc(F)cc6F)C5)cc4)CC3)cc2)c1=O  MIC (Nakaseomyces glabratus; microbial growth; ATCC2001; 72 h): 3.12 µM
O=C(O)c1cn(C2CC2)c2cc(N3CCNCC3)c(F)cc2c1=O  MIC (Klebsiella aerogenes): 0.5 µg/mL
CC1(C)SC2C(NC(=O)C(NC(=O)C3=C(O)C(c4ccccc4)NC3=O)c3ccccc3)C(=O)N2C1C(=O)O (stereo not shown)  MIC (Escherichia coli; broth microdilution; BW25113, Mueller-Hinton broth; together with: 2,2'-bipyridyl 30 µg/mL): 50 µg/mL
RXRRXRRXRRXRXB (PNA conjugate)  MIC (Streptococcus pyogenes; broth microdilution; peptide; 0.02% acetic acid, 0.4% BSA): 125 µM
CTCATACTCT  MIC (Salmonella enterica Typhimurium; bacterial growth, broth microdilution; peptide, SL1344, MHB; 24 h, 37 °C): 1.25 µM
CC1(C)SC2C(NC(=O)C(NC(=O)C3=C(O)C4CCCN4C3=O)c3ccccc3)C(=O)N2C1C(=O)O (stereo not shown)  MIC (Escherichia coli; broth microdilution; BW25113, Mueller-Hinton broth): 200 µg/mL

Some of these lines once more:
GACATACTCT  MIC (Salmonella enterica Typhimurium; bacterial growth, broth microdilution; peptide, SL1344, MHB; 24 h, 37 °C): 5 µM
LSTFFRLFN  MIC (Streptococcus gordonii; broth microdilution; peptide, ATCC 10558; 24 h, 37 °C, planktonic, anaerobic): > 256 µg/mL
